Assay results from different studies.
Several values in a cell are separate wells, animals, samples, runs or records. Numbers after ± are the reported error.

`C[C@H](NC(=O)c1cc(Cl)ccc1O)C(=O)Nc1ccc([N+](=O)[O-])cc1Cl` has a CC50 of > 10 µM (A549).
For `CC[C@H](C)[C@@H]1NC(=O)[C@H](CO)NC(=O)[C@H](CCC(=O)O)NC(=O)[C@H](CC(C)C)NC(=O)[C@H](CC(C)C)NC(=O)[C@H](CCCCN)NC(=O)[C@H](CCCCN)NC(=O)[C@H]([C@@H](C)CC)NC(=O)[C@H]([C@@H](C)CC)NC(=O)[C@H](CCCCN)NC(=O)[C@H](CCCCN)NC(=O)[C@H](Cc2ccc(O)cc2)NC(=O)[C@H](CC(C)C)NC(=O)[C@@H]2CCCN2C(=O)CNC(=O)CNC(=O)[C@@H](N)CSSC[C@@H](C(N)=O)NC(=O)CNC(=O)CNC(=O)[C@H]([C@@H](C)O)NC(=O)[C@H](CC(C)C)NC(=O)[C@H](CCC(N)=O)NC(=O)[C@H](C)NC(=O)[C@H](Cc2c[nH]c3ccccc23)NC(=O)[C@H](Cc2ccc(O)cc2)NC(=O)[C@H](Cc2c[nH]cn2)NC(=O)[C@H](CCC(=O)O)NC(=O)[C@H](Cc2ccccc2)NC(=O)[C@H]([C@@H](C)O)NC(=O)[C@H](CC(C)C)NC(=O)CNC(=O)CNC(=O)[C@H](CO)NC(=O)CNC(=O)CNC(=O)[C@H](CO)NC(=O)CNC(=O)CNC(=O)[C@H](CCCCN)NC(=O)[C@H](CCCCN)NC(=O)[C@H]([C@@H](C)CC)NC1=O`, the CC50 was 29 ± 1.9 µM (MDA-MB-231; resazurin; 24 h).
`C/C(O)=C(\C#N)C(=O)Nc1ccc(C(F)(F)F)cc1` has a CC50 of > 100 µM (Huh-7; CPE; 7 days).
For `CC[C@H](C)[C@H](NC(=O)[C@H](CCCCN)NC(=O)[C@H](CCCCN)NC(=O)[C@H](Cc1ccc(O)cc1)NC(=O)[C@H](CC(C)C)NC(=O)[C@@H]1CCCN1C(=O)[C@H](C)N)C(=O)N[C@H](C(=O)N[C@@H](CCCCN)C(=O)N[C@@H](CCCCN)C(=O)N[C@@H](CC(C)C)C(=O)N[C@@H](CC(C)C)C(=O)N[C@@H](CCC(=O)O)C(=O)N[C@@H](CO)C(N)=O)[C@@H](C)CC`, the CC50 was > 32 µM (K562; resazurin; 24 h).
With `CN(C)CCOc1ccc(/C(=C(/CCCl)c2ccccc2)c2ccccc2)cc1` the CC50 was 17.1 µM (human cells; concentration not given, 2 (unit not given)).
`CCCC(=O)OCSc1ccccc1C(=O)NCCC(N)=O` has a CC50 of > 1500 µM (human monocytes/macrophages; 7 days).
For `CN(C(=O)C(Cc1ccccc1)NC(=O)CN1C(=O)NC2(CCCCC2)C1=O)c1ccc(Cl)cc1` (centres unmarked), the CC50 was > 100 µM (TZM-GFP; XTT; 72 h).
For `COc1cc(Nc2c(C#N)cnc3cc(OCCCN4CCN(C)CC4)c(OC)cc23)c(Cl)cc1Cl`, the CC50 was 17.1 µM (human cells; concentration not given, 2 days).
For `CCC(CC)COC(=O)[C@H](C)N[P@](=O)(OC[C@H]1O[C@@](C#N)(c2ccc3c(N)ncnn23)[C@H](O)[C@@H]1O)Oc1ccccc1`, the CC50 was 15 µM (Huh-7; 7 days, uninfected, CPE assay format).
With `OC(c1cc(C(F)(F)F)nc2c(C(F)(F)F)cccc12)C1CCCCN1` (centres unmarked) the CC50 was 8.78 µM (Vero E6 uninfected; cell viability, CellTiter-Glo; 72 h).
With `nanaomycin` the CC50 was 0.514 µM (HepG2; cell viability; 24 h, 37 °C).
The CC50 of `CC[C@H](C)[C@H](NC(=O)[C@H](CCCCN)NC(=O)[C@H](CCCCN)NC(=O)[C@H](Cc1ccc(O)cc1)NC(=O)[C@H](CC(C)C)NC(=O)[C@@H]1CCCN1C(=O)[C@H](C)NC(=O)CNC(=O)CNC(=O)[C@H](CO)NC(=O)CNC(=O)CNC(=O)[C@H](CO)NC(=O)[C@@H](NC(=O)[C@H](CC(C)C)NC(=O)[C@H](CC(C)C)NC(=O)[C@H](C)NC(=O)[C@H](Cc1c[nH]c2ccccc12)NC(=O)[C@H](Cc1ccc(O)cc1)NC(=O)[C@H](Cc1c[nH]cn1)NC(=O)[C@H](CCC(=O)O)NC(=O)[C@H](Cc1ccccc1)NC(=O)[C@@H](NC(=O)[C@H](CC(C)C)NC(=O)[C@@H]1CCCN1C(=O)[C@H](C)NC(=O)[C@H](CCC(N)=O)NC(=O)[C@@H](N)CC(C)C)[C@@H](C)O)[C@@H](C)O)C(=O)N[C@H](C(=O)N[C@@H](CCCCN)C(=O)N[C@@H](CCCCN)C(=O)N[C@@H](CC(C)C)C(=O)N[C@@H](CC(C)C)C(=O)N[C@@H](CCC(=O)O)C(=O)N[C@@H](CO)C(N)=O)[C@@H](C)CC` is reported as > 32 µM (MDA-MB-231; resazurin; 24 h).
`OC(c1cc(C(F)(F)F)nc2c(C(F)(F)F)cccc12)C1CCCCN1` (centres unmarked) gave a CC50 of 18.4 ± 2.08 µM (Vero E6, HeLa, HEK293T, Huh7.5; nuclei count; 16 h, mean of four cell lines).
With `CN(C(=O)C(Cc1ccccc1)NC(=O)CN1C(=O)NC2(CCCCC2)C1=O)c1ccc(F)cc1` (centres unmarked) the CC50 was > 50 µM (TZM-GFP; XTT; 72 h).
`CC(C)[C@H](NC(=O)c1cc(Cl)ccc1O)C(=O)Nc1cc(C(F)(F)F)cc(C(F)(F)F)c1` gave a CC50 of 7.14 µM (A549).
`OCCN1CCN(CCCN2c3ccccc3Sc3ccc(Cl)cc32)CC1` has a CC50 of 18.3 µM (human cells; concentration not given, 2 (unit not given)).
The CC50 of `O=C(O)C(F)(F)C(F)(F)C(F)(F)C(F)(F)C(F)(F)C(F)(F)C(F)(F)F` is reported as 673 ± 58.2 µM (BeWo cells; 24 h).
For `CCN(CC)CCNc1ccc(CO)c2sc3ccccc3c(=O)c12`, the CC50 was 11.3 ± 2.73 µM (Vero E6, HeLa, HEK293T, Huh7.5; nuclei count; 16 h, mean of four cell lines).
`OCCN1CCN(CCC=C2c3ccccc3Sc3ccc(C(F)(F)F)cc32)CC1` gave a CC50 of 16.9 µM (human cells; concentration not given, 2 (unit not given)).
`O=C(Nc1ccc(F)c(F)c1)c1cc(Cl)ccc1O` has a CC50 of 3.76 µM (A549).
The CC50 of `CN(C)CCCN1c2ccccc2Sc2ccc(Cl)cc21` is reported as 10 to 50 µM (HepG2; cytotoxicity; 48 and 72 h).
With `NC(=O)c1nc(F)c[nH]c1=O` the CC50 was 5860 µM and 3730 µM and > 4860 µM (Vero 76; cytotoxicity).
With `CC(C)[C@H](NC(=O)c1cc(Cl)ccc1O)C(=O)Nc1ccc([N+](=O)[O-])cc1Cl` the CC50 was 8.32 µM (A549).
With `CC(CN(C)C)CN1c2ccccc2Sc2ccccc21` (centres unmarked) the CC50 was 13.8 µM (human cells; concentration not given, 2 (unit not given)).
The CC50 of `C=C1C(=O)O[C@H]2[C@H]1CCC(COC(=O)c1ccc(C(F)(F)F)cc1)=C1CC[C@@](C)(O)[C@@H]12` is reported as 1 ± 0.1 µM (MV4-11; cell viability, alamarBlue; 24 h).
The CC50 of `CC(C)[C@H](NC(=O)c1cc(Cl)ccc1O)C(=O)Nc1ccc(F)c(F)c1` is reported as > 10 µM (A549).
`CCC(C)n1ncn(-c2ccc(N3CCN(c4ccc(OCC5COC(Cn6cncn6)(c6ccc(Cl)cc6Cl)O5)cc4)CC3)cc2)c1=O` (centres unmarked) has a CC50 of > 100 µM (African green monkey cells; 5 days).
`O=C(Nc1cc(F)cc(C(F)(F)F)c1)c1cc(Cl)ccc1O` gave a CC50 of 1.97 µM (A549).
For `CN1CCCC(n2nc(Cc3ccc(Cl)cc3)c3ccccc3c2=O)CC1` (centres unmarked), the CC50 was > 20 µM (human cells; concentration not given, 2 (unit not given)).
`CC[C@H](C)[C@H](NC(=O)[C@H](CCCCN)NC(=O)[C@H](CCCCN)NC(=O)[C@H](Cc1ccc(O)cc1)NC(=O)[C@H](CC(C)C)NC(=O)[C@@H]1CCCN1C(=O)[C@H](C)NC(=O)CNC(=O)CNC(=O)[C@H](CO)NC(=O)CNC(=O)CNC(=O)[C@H](CO)NC(=O)[C@H](CCC(=O)O)NC(=O)[C@H](CC(C)C)NC(=O)[C@H](CC(C)C)NC(=O)[C@H](CCCCN)NC(=O)[C@H](CCCCN)NC(=O)[C@@H](NC(=O)[C@@H](NC(=O)[C@H](CCCCN)NC(=O)[C@H](CCCCN)NC(=O)[C@H](Cc1ccc(O)cc1)NC(=O)[C@H](CC(C)C)NC(=O)[C@@H]1CCCN1C(=O)[C@H](C)NC(=O)[C@H](CCC(N)=O)NC(=O)[C@@H](N)CC(C)C)[C@@H](C)CC)[C@@H](C)CC)C(=O)N[C@H](C(=O)N[C@@H](CCCCN)C(=O)N[C@@H](CCCCN)C(=O)N[C@@H](CC(C)C)C(=O)N[C@@H](CC(C)C)C(=O)N[C@@H](CCC(=O)O)C(=O)N[C@@H](CO)C(N)=O)[C@@H](C)CC` gave a CC50 of 4.4 ± 0.1 µM (K562; resazurin; 24 h).
For `CC(C)[C@H](NC(=O)c1cc(Cl)ccc1O)C(=O)Nc1cc(F)cc(C(F)(F)F)c1`, the CC50 was 10.1 µM (A549).
With `C=C1C(=O)O[C@@H]2C[C@@H](C)[C@@H]3C=CC(=O)[C@@]3(C)[C@@H](O)[C@H]12` the CC50 was 1.2 µM (BALB/c mouse splenocytes; propidium iodide flow cytometry; 48 h, 10% fetal calf serum).

For quick reference, copied from above:
With `NC(=O)c1nc(F)c[nH]c1=O` the CC50 was 5860 µM and 3730 µM and > 4860 µM (Vero 76; cytotoxicity).
`O=C(Nc1ccc(F)c(F)c1)c1cc(Cl)ccc1O` has a CC50 of 3.76 µM (A549).
The CC50 of `C=C1C(=O)O[C@H]2[C@H]1CCC(COC(=O)c1ccc(C(F)(F)F)cc1)=C1CC[C@@](C)(O)[C@@H]12` is reported as 1 ± 0.1 µM (MV4-11; cell viability, alamarBlue; 24 h).
The CC50 of `CC(C)[C@H](NC(=O)c1cc(Cl)ccc1O)C(=O)Nc1ccc(F)c(F)c1` is reported as > 10 µM (A549).
